Results pooled from the literature.
A part holds a random share of what one study measured. “And” joins repeats or separate records; there may be more than shown.
Sequence of UniProt Q5XXA6 (whole entry, unmodified, looked up): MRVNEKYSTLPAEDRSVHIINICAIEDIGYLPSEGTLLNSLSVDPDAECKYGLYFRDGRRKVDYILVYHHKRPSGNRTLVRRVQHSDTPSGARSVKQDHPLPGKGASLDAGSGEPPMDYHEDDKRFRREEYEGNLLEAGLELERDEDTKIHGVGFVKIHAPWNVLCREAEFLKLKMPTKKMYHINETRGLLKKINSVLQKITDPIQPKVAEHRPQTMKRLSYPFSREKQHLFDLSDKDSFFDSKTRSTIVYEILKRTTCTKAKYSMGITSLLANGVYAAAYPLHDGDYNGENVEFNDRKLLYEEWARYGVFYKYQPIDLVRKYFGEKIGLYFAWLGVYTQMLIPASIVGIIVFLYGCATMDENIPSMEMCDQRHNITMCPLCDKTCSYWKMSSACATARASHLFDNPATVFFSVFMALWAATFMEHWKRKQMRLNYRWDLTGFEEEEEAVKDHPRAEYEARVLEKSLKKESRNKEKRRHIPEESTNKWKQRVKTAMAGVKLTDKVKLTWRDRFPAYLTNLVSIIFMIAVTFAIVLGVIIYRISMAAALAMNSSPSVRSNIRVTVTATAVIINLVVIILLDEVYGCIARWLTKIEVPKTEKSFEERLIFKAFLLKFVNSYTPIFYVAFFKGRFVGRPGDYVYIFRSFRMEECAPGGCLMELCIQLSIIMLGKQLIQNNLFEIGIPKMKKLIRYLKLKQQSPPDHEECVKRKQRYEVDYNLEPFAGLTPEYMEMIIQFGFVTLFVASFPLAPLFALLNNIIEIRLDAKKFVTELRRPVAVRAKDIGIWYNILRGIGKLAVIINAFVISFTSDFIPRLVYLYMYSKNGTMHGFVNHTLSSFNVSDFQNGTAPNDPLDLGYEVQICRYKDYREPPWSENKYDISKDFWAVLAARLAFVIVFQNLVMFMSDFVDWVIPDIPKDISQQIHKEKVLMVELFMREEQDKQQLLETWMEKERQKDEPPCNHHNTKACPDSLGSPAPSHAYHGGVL
Sequence of UniProt P00519 (whole entry, unmodified, looked up): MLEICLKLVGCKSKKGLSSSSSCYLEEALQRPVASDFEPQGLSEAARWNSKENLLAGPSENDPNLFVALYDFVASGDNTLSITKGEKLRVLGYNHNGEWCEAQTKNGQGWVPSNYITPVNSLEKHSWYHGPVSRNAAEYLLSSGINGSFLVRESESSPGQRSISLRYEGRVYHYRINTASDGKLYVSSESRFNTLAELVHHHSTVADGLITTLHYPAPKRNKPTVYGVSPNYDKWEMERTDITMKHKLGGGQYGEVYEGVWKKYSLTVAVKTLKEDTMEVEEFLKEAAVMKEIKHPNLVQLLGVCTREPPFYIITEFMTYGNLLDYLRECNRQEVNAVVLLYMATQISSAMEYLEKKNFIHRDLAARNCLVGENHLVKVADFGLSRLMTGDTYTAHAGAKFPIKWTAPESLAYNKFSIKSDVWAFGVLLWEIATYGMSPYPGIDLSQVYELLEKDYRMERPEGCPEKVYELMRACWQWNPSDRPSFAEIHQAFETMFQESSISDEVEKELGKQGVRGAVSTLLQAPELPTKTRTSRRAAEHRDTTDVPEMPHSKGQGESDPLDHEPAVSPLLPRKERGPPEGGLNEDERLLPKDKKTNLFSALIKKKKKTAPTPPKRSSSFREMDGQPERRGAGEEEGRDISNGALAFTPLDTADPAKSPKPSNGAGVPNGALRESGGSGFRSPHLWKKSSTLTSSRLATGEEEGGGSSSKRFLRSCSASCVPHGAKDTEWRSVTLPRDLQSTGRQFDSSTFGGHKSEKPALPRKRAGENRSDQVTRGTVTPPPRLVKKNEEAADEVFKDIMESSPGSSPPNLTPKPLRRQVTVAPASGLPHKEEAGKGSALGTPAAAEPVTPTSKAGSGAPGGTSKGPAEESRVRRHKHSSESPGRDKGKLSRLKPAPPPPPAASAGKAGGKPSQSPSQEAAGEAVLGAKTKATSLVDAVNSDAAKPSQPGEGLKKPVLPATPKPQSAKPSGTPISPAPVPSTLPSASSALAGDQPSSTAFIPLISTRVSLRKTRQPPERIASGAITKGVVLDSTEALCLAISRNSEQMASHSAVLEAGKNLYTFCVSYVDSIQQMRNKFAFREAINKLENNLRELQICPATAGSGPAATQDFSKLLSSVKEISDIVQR

Set 1
Compound: C=CCc1ccc(O)c(-c2cc(CC=C)ccc2O)c1
Read-out: chloride current
Method: whole-cell voltage clamp
target	mode	tested at	notes	added	IC50 [µM]
Anoctamin-1 (ANO1, Homo sapiens, UniProt Q5XXA6, del476-501/E649K)	inhibitor		mutant E623K		128
Anoctamin-1 (ANO1, Homo sapiens, UniProt Q5XXA6, del476-501/M544A)	inhibitor		mutant M518A		99
Anoctamin-1 (ANO1, Homo sapiens, UniProt Q5XXA6, del476-501/R541K)	inhibitor		R515K mutant at -20 mV		16.4
Anoctamin-1 (ANO1, Homo sapiens, UniProt Q5XXA6, del476-501/K629R)	inhibitor	40 mV holding voltage			221
Anoctamin-1 (ANO1, Homo sapiens, UniProt Q5XXA6, del476-501)			membrane voltage 60 mV	300 nM Ca2+	21.6
Anoctamin-1 (ANO1, Homo sapiens, UniProt Q5XXA6, del476-501/L548A)	inhibitor		pore pocket mutant L522A at 100 mV	300 nM Ca2+	36.6
Anoctamin-1 (ANO1, Homo sapiens, UniProt Q5XXA6, del476-501/F627A)			membrane voltage 60 mV		23.6
Anoctamin-1 (ANO1, Homo sapiens, UniProt Q5XXA6, del476-501/R561A)			membrane voltage -40 mV		27
Anoctamin-1 (ANO1, Homo sapiens, UniProt Q5XXA6, del476-501/R541I)	inhibitor		R515I mutant at -60 mV		41.9
Anoctamin-1 (ANO1, Homo sapiens, UniProt Q5XXA6, del476-501/F807A)	inhibitor		mutant F781A at 100 mV	300 nM Ca2+	21.3
Anoctamin-1 (ANO1, Homo sapiens, UniProt Q5XXA6, del476-501/M544T)	inhibitor	20 mV holding voltage			22.5
Anoctamin-1 (ANO1, Homo sapiens, UniProt Q5XXA6, del476-501/F623A)			membrane voltage 100 mV		25.4
Anoctamin-1 (ANO1, Homo sapiens, UniProt Q5XXA6, del476-501/E650A)			membrane voltage 60 mV		15
Anoctamin-1 (ANO1, Homo sapiens, UniProt Q5XXA6, del476-501/F803A)			membrane voltage 100 mV		20.7

Set 2
Cell line: mouse MPNST tumor cells
Method: high-content immunofluorescence imaging
Measured: nuclear SOX9
Tested at: 10 µM
Time: 12 h
Notes: mean of 2 replicates
Reference: DMSO control
Direction: higher = more nuclear SOX9
Compound	nuclear SOX9 intensity
Cc1cn([C@H]2C[C@H](N=[N+]=[N-])[C@@H](CO)O2)c(=O)[nH]c1=O	133 % of DMSO
C=CCOc1ccccc1OCC(O)CNC(C)C (centres unmarked)	91.7 % of DMSO
CC(C)Nc1cc(-c2csc(N(C)C(=O)c3ccc(F)cc3)n2)ncn1	100 % of DMSO
CC(=O)NC1C(OC(C)C)OC(COC(C)=O)C(OC(C)=O)C1OC(C)=O (centres unmarked)	105 % of DMSO
CCN(CCNC(=O)Nc1ccccc1Br)c1cccc(C)c1	121 % of DMSO
C[C@H](NC(=O)CNC(=O)c1cccc(Cl)c1)c1ccccc1	98.1 % of DMSO
Cc1cc(C)cc(OCC2CNC(=O)O2)c1 (centres unmarked)	136 % of DMSO
CCOc1ccc(Nc2nc(-c3c(C)nc4ccccn34)cs2)cc1	270 % of DMSO
CC(=O)c1ccc(S(=O)(=O)NC(=O)NC2CCCCC2)cc1	91.7 % of DMSO and 117 % of DMSO
COc1ccc2[nH]c([S+]([O-])Cc3ncc(C)c(OC)c3C)nc2n1 (centres unmarked)	112 % of DMSO
N=C(N)Nc1ccc(C(=O)Oc2ccc3cc(C(=N)N)ccc3c2)cc1	95.5 % of DMSO

Set 3
Organism: Sarcocystis neurona
Read-out: parasite growth
Tested at: 10 µM
Structure (SMILES)	inhibition [%]
CC(C)(C)C(O)/C=C/c1ccc2c(c1)OCO2 (centres unmarked)	-34.9
CN(C)c1ccc(O)c2c1C[C@H]1C[C@H]3[C@H](N(C)C)C(O)=C(C(N)=O)C(=O)[C@@]3(O)C(O)=C1C2=O	37.2
O=C(O)c1cc(=O)c2c(OCC(O)COc3cccc4oc(C(=O)O)cc(=O)c34)cccc2o1	-29.1
CC(=O)Oc1ccccc1C(=O)Nc1ncc([N+](=O)[O-])s1	-108
COc1cc2nc(N3CCN(C(=O)c4ccco4)CC3)nc(N)c2cc1OC	83.5
Cc1ncc([N+](=O)[O-])n1CC(C)O (centres unmarked)	-19.8
CN(C)[C@@H]1C(O)=C(C(N)=O)C(=O)[C@@]2(O)C(O)=C3C(=O)c4c(O)ccc(Cl)c4[C@@H](O)[C@H]3C[C@@H]12	15.9
COC(=O)Nc1nc2ccc(C(=O)c3ccccc3)cc2[nH]1	-76.1
CSc1nc2cc(Cl)c(Oc3cccc(Cl)c3Cl)cc2[nH]1	10.3
c1cnc(N2CCN(Cc3ccc4c(c3)OCO4)CC2)nc1	-34.9
CN(C)CCCN1c2ccccc2Sc2ccc(Cl)cc21	24.3
CC1=C(/C=C/C(C)=C/C=C/C(C)=C\C(=O)O)C(C)(C)CCC1	-31.8

Single results of other studies
SMILES	target or system	assay	conditions	scale	endpoint	value
N#CC1(c2ccccn2)CCN(Cc2cc(C(=O)O)c(=O)n3ccccc23)CC1	Tyrosine-protein kinase ABL1, phosphorylated (ABL1, Homo sapiens, UniProt P00519, F317I)	binding	1 µM		remaining binding	81%
Cn1cncc1[C@@](O)(COc1ccc(C#N)cc1-c1ccc(OC(F)(F)F)cc1)c1ccc(C#N)cc1	HEK293T	high-content imaging	10 µM, 0 h		apoptotic cells	21.6% and 16.7%
CN(C)C(=O)/C(C#N)=C/c1ccc(-c2nc3cnc4c(ccn4C)c3n2C2CCCCC2)o1	sample I colorectal tumour organoid		0.1 µM	reference: DMSO	viability	123%
CN(C)C(=O)N1CC[C@H](N=C2Nc3cc(F)ccc3N(CC(F)F)c3ccc(Cl)cc32)C1	sample I colorectal tumour organoid		0.1 µM	reference: DMSO	viability	141%
